Measurements from different studies.
Every numbered part comes from another study and shows a few of its results, in no order.
Chain of UniProt Q9NY57 (whole entry, looked up): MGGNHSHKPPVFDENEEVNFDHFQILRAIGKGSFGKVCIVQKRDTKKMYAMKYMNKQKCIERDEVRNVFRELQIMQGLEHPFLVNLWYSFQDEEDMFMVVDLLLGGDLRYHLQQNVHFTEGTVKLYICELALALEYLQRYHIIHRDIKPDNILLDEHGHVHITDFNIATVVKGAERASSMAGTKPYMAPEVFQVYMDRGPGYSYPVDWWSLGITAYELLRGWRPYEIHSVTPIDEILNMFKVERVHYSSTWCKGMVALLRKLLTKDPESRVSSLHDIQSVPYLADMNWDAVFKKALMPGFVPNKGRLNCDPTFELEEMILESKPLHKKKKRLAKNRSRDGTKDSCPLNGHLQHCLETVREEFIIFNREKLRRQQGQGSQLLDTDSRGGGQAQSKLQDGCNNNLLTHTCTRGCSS
Chain of UniProt Q8IVW4 (whole entry, looked up): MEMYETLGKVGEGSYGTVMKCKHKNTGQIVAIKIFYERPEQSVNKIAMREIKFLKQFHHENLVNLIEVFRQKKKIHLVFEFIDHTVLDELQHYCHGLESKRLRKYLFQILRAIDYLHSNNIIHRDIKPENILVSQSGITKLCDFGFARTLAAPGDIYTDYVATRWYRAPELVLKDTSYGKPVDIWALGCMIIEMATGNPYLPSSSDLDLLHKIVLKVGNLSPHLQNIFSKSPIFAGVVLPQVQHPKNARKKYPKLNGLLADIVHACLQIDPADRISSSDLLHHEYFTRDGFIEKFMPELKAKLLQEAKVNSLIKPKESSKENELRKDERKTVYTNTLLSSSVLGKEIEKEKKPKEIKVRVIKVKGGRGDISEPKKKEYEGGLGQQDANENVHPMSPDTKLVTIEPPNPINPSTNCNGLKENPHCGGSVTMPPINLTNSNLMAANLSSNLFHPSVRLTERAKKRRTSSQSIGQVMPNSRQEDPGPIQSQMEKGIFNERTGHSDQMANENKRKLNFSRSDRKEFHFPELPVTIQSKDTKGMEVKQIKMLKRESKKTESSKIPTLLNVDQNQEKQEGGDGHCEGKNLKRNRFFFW
Chain of UniProt Q13555 (whole entry, looked up): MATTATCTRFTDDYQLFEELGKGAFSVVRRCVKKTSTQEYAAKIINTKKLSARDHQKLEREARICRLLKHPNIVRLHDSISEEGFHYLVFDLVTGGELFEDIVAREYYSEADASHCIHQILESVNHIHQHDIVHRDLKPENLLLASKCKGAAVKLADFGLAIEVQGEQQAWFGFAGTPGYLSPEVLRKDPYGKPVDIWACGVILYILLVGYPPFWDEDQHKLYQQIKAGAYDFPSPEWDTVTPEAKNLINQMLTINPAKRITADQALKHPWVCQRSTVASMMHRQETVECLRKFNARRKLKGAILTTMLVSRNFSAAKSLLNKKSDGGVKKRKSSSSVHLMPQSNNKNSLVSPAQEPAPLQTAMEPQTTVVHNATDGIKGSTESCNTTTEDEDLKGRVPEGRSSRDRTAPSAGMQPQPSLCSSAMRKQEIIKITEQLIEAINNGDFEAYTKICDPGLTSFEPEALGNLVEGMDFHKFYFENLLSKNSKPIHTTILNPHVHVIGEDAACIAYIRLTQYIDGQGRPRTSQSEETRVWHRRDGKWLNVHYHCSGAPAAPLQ
Chain of UniProt Q8N568 (whole entry, looked up): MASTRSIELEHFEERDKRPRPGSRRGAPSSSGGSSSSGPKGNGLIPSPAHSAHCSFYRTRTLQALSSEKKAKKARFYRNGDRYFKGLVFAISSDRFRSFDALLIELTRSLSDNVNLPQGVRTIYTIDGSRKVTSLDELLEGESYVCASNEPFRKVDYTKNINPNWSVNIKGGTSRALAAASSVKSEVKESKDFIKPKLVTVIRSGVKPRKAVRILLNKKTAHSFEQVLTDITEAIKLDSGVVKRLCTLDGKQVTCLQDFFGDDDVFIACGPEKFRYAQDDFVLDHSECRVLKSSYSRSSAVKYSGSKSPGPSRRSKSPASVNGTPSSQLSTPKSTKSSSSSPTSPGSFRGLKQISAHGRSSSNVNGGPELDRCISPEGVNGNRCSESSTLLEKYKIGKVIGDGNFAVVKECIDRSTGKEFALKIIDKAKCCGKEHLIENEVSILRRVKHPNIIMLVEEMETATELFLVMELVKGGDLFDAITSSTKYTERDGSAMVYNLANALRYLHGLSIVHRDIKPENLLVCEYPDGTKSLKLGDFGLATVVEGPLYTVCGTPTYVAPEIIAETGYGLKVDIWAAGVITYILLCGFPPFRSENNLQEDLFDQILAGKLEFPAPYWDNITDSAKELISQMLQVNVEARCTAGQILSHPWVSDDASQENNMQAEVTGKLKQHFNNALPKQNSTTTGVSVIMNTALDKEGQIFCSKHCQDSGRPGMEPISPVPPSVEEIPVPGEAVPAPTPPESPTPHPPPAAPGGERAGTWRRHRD
Chain of UniProt O94921 (whole entry, looked up): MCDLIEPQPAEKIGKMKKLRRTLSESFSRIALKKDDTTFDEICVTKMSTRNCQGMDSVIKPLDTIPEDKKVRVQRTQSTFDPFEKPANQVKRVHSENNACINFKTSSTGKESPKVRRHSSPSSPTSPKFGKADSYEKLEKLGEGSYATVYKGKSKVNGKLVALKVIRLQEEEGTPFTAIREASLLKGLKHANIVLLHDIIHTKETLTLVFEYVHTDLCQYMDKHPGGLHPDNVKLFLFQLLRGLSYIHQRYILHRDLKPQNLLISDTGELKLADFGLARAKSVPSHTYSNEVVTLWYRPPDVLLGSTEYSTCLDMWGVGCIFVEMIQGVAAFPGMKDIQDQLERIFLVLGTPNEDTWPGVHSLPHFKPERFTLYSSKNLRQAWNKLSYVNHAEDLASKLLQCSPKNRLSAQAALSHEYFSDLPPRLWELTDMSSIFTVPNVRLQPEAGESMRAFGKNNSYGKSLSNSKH
Chain of UniProt P57059 (whole entry, looked up): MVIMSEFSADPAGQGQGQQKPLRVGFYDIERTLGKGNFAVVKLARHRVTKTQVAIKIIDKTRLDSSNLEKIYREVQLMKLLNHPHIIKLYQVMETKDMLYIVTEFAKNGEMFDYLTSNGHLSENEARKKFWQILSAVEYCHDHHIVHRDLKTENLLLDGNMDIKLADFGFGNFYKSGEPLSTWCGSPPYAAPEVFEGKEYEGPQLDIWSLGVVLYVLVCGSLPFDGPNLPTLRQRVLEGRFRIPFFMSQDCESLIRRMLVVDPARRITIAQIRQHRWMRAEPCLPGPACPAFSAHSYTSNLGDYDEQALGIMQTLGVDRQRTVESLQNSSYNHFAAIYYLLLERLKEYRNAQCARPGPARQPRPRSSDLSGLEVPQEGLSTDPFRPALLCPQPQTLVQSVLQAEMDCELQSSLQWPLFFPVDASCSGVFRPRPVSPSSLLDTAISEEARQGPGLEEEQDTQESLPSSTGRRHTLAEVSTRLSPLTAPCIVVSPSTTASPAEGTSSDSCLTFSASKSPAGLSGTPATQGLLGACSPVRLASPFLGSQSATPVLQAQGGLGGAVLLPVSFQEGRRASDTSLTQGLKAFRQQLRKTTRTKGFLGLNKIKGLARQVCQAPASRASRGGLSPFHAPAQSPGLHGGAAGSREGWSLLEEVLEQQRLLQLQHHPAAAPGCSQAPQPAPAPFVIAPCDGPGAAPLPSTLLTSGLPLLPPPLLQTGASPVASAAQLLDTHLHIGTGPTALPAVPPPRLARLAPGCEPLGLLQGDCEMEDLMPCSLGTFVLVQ
Chain of UniProt Q07002 (whole entry, looked up): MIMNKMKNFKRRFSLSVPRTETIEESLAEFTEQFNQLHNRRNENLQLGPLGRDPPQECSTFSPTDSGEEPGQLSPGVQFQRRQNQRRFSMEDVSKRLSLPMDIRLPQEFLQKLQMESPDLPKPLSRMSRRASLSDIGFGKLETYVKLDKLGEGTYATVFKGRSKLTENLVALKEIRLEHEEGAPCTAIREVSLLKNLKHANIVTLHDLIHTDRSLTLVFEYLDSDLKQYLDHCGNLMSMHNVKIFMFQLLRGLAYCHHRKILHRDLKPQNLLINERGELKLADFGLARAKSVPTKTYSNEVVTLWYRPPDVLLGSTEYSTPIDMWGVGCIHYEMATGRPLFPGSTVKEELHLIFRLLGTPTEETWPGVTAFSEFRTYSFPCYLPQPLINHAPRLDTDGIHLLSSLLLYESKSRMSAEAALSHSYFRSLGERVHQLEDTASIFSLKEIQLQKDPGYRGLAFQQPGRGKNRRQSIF

Block 1
Target: Serine/threonine-protein kinase tousled-like 2 (TLK2, Homo sapiens, UniProt Q86UE8)
Chain of UniProt Q86UE8 (whole entry, looked up): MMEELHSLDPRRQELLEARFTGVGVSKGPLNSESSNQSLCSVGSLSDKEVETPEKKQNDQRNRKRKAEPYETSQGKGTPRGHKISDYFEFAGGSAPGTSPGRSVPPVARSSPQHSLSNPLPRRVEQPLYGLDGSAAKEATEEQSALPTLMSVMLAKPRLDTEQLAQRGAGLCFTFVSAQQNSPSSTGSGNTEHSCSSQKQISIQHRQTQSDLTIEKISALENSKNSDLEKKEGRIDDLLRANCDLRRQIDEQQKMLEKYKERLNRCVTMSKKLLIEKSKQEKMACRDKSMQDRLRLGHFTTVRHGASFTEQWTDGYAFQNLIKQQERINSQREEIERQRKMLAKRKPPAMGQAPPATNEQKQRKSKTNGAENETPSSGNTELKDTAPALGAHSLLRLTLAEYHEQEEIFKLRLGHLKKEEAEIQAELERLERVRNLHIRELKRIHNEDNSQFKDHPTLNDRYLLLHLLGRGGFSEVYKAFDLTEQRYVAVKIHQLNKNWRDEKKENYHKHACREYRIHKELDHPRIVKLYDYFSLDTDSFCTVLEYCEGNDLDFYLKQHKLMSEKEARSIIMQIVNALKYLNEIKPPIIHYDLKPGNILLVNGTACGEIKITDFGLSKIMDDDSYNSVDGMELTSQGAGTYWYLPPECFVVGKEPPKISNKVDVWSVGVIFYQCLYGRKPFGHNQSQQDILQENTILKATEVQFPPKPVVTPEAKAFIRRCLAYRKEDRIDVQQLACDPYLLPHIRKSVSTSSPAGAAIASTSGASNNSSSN
Effect on: enzyme activity
Mode: inhibitor
Concentration: 0.5 µM
Relative to: control
Endpoint: remaining activity
Nc1ncnc2n[nH]c(Nc3ccc(F)cc3)c12: 79%
O=C(O)c1ccc2c3c1cccc3c(=O)n1c3ccccc3nc21: 91.2%
CNC(=O)c1cc(Oc2ccc(NC(=O)Nc3ccc(Cl)c(C(F)(F)F)c3)cc2)ccn1: 84.8%
COc1cc2ncnc(Nc3ccc(F)c(Cl)c3)c2cc1OCCCN1CCOCC1: 80.4%
C#Cc1cccc(Nc2ncnc3cc(OCCOC)c(OCCOC)cc23)c1: 85.9%
O=C(CCCc1ccc(-c2ccccc2F)cc1)Nc1ccc(O)cc1: 84.1%
COc1cc2nccc(Oc3ccc(NC(=S)NC(=O)c4ccccc4C)cc3)c2cc1OC: 85.3%
Cc1ccc(NC(=O)c2ccc(CN3CCN(C)CC3)cc2)cc1Nc1nc(-c2cccnc2)cs1: 94.5%
CO[C@H]1C[C@@H]2CC[C@@H](C)[C@@](O)(O2)C(=O)C(=O)N2CCCC[C@H]2C(=O)O[C@H]([C@H](C)C[C@@H]2CC[C@@H](O)[C@H](OC)C2)CC(=O)[C@H](C)/C=C(\C)[C@@H](O)[C@@H](OC)C(=O)[C@H](C)C[C@H](C)/C=C/C=C/C=C/1C: 94.4%
O=C1NC(=O)C(c2cn(CCCn3ccnc3)c3ccccc23)=C1Nc1ccccc1: 74.1%
Cc1nc(-c2ccccc2)c(-c2ccncc2)o1: 110%
NCCNc1ncc(C(N)=O)c(Nc2cccc(C(F)(F)F)c2)n1: 88.3%
COc1cc2ncnc(Nc3ccc(Oc4ccccc4)cc3)c2cc1OC: 107%
Cc1cccc(-c2[nH]c(C(C)(C)C)nc2-c2ccc3c(c2)OCO3)n1: 103%
N#CC(C#N)=C(N)/C(C#N)=C/c1ccc(O)cc1: 89.4%
Oc1ccc(-c2nc(-c3ccncc3)c(-c3ccc(F)cc3)[nH]2)cc1: 97.4%
CCOC(=O)c1c(C)[nH]c(/C=C2\C(=O)Nc3ccccc32)c1C: 96.5%

Block 2
SMILES: CC(=O)C1=C(C)N(c2cccc(C(F)(F)F)c2)C(=O)N[C@@H]1c1ccc(C#N)nc1
Concentration: 1 µM
Endpoint: remaining binding
Calcium/calmodulin-dependent protein kinase type II subunit beta (CAMK2B, Homo sapiens, UniProt Q13554); cell-free assay, competition with immobilised ligand: 95.7%
Epidermal growth factor receptor (EGFR, Homo sapiens, UniProt P00533, L858R/T790M); cell-free assay, competition with immobilised ligand: 100%
Cyclin-dependent kinase 14 (CDK14, Homo sapiens, UniProt O94921); cell-free assay, competition with immobilised ligand: 91.7%
Receptor-type tyrosine-protein kinase FLT3 (FLT3, Homo sapiens, UniProt P36888, F691L/ITD); cell-free assay, competition with immobilised ligand: 87.4%
Serine/threonine-protein kinase DCLK2 (DCLK2, Homo sapiens, UniProt Q8N568); cell-free assay, competition with immobilised ligand: 88%
Mitogen-activated protein kinase kinase kinase 20 (MAP3K20, Homo sapiens, UniProt Q9NYL2); cell-free assay, competition with immobilised ligand: 96.9%
Tyrosine-protein kinase FRK (FRK, Homo sapiens, UniProt P42685); cell-free assay, competition with immobilised ligand: 100%
Serine/threonine-protein kinase SIK1 (SIK1, Homo sapiens, UniProt P57059); competition binding: 100%
Cyclin-dependent kinase-like 3 (CDKL3, Homo sapiens, UniProt Q8IVW4); cell-free assay, competition with immobilised ligand: 98.5%
Calcium/calmodulin-dependent protein kinase type II subunit gamma (CAMK2G, Homo sapiens, UniProt Q13555); cell-free assay, competition with immobilised ligand: 100%
Serine/threonine-protein kinase MAK (MAK, Homo sapiens, UniProt P20794); cell-free assay, competition with immobilised ligand: 82.5%
Serine/threonine-protein kinase 32B (STK32B, Homo sapiens, UniProt Q9NY57); cell-free assay, competition with immobilised ligand: 100%
Serine/threonine-protein kinase WNK1 (WNK1, Homo sapiens, UniProt Q9H4A3); cell-free assay, competition with immobilised ligand: 89%
Calcium/calmodulin-dependent protein kinase type II subunit delta (CAMK2D, Homo sapiens, UniProt Q13557); cell-free assay, competition with immobilised ligand: 100%
Serine/threonine-protein kinase DCLK1 (DCLK1, Homo sapiens, UniProt O15075); cell-free assay, competition with immobilised ligand: 85.1%
Fibroblast growth factor receptor 3 (FGFR3, Homo sapiens, UniProt P22607); cell-free assay, competition with immobilised ligand: 96.4%
Tyrosine-protein kinase ZAP-70 (ZAP70, Homo sapiens, UniProt P43403); cell-free assay, competition with immobilised ligand: 88.1%
Ribosomal protein S6 kinase alpha-3, C-terminal kinase domain (RPS6KA3, Homo sapiens, UniProt P51812); cell-free assay, competition with immobilised ligand: 99.2%
Cyclin-dependent kinase 18 (CDK18, Homo sapiens, UniProt Q07002); cell-free assay, competition with immobilised ligand: 85.1%

Block 3
Target: PABPC1L2, full length, GST fusion (mouse, UniProt A0ABA7IW68)
Method: RNAcompete
Form: RNA
Medium: in vitro
Concentration: 20 nM
Setting: 7-mer, probes averaged, single round
Relative to: mean of 7-mers
Reading: higher = stronger binding
Endpoint: 7-mer Z-score
Target sequence (chain): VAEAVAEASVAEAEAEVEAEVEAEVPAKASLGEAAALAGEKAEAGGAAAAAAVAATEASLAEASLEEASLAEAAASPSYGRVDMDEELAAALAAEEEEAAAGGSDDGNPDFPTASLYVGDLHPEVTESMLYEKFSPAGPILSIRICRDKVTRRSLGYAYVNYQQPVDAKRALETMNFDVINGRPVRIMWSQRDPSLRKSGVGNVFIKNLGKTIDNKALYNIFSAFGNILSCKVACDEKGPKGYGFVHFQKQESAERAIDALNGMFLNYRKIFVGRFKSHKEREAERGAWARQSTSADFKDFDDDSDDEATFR
CCCGUGA: -0.266
ACCACUU: -0.171
UUAGACU: -0.213
GUCACUU: -0.193
UGAGUUA: -0.179
ACGGGAU: 0.0986
CAUGCUA: -0.0935
CGUGAAA: 0.501

Block 4
Target: Interferon regulatory factor 3, full length, phosphomimetic (IRF3, Homo sapiens, UniProt Q14653, residues 1-427, S386D/S396D/S398D/S402D/T404D/S405D)
Method: protein-binding microarray
Form: double-stranded DNA, one strand shown
Medium: in vitro
Concentration: 2540 nM top
Setting: 60-bp whole probe
With: salmon DNA 0.4 mg/ml
Relative to: random background probes
Reading: higher = stronger binding
Endpoint: fitted relative affinity
All sequences stand within: GCCTAGCAC … GTCTTGATTCGCTTGACGCTGCTG
Residues (chain): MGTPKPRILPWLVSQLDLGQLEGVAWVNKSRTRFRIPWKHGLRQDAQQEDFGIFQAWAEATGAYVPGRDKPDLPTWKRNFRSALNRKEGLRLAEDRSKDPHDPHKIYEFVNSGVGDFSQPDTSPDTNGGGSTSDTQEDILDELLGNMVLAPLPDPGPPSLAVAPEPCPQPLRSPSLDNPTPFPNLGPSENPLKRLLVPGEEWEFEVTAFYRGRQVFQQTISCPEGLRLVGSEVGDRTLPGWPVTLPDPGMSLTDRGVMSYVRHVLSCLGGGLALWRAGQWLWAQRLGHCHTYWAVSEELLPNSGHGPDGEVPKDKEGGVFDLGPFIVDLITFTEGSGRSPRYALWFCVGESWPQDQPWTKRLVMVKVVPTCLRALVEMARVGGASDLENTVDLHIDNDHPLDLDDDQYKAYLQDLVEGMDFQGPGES
TTAGGACTGGGGTTTCTGTTAGTGCTA: 0.201 z-score
TTAGGTATCCTACTGGTTTAGTGCTAG: 2.62 z-score
GACGAACTGAGACTTGAGACGTGCTAG: -0.295 z-score
TTACGTCTCGGTCTCGGTTAGTGCTAG: 1.44 z-score
TCATTTTTCTACTTCTGACTGTGCTAG: 2.17 z-score
TTCGATTCCAGTTTCGATTAGTGCTAG: 4.35 z-score
TTAGGCATCGGTATCGGTTAGTGCTAG: 1.7 z-score
TTAGGTATCGGTCACGGTTAGTGCTAG: 1.46 z-score
